Measured values of several laboratories.
Each line is one published result; not all experiments were run side by side. Values joined by “and” are separate records of one study, mostly repeats; a detail may differ. Numbers after ± are the reported error.

`C[C@@H](Oc1ccc(S(C)(=O)=O)cc1C(=O)N1C[C@@H]2C[C@]2(c2cc(C(F)(F)F)on2)C1)C(F)(F)F` has a trough concentration of 66.7 nM (human male, plasma; oral, 5 mg once daily, 312 h).
`C=CC(N)CCC(=O)O` (stereo not drawn) has a median Tmax of 0.25 h (male Sprague-Dawley rat, plasma; oral, 1.0 mg/kg, formulation 1).
With `Cn1c(-c2ccc(C(N)=O)cc2F)nnc1C(C)(C)Oc1c(F)cc(Cl)cc1F` the Cmax median was 83.4 ng/mL (young Japanese adults, plasma; oral, 10 mg single dose, day 1, high-dose multiple-dose study).
With `Cc1c(CN2CCN(C(=O)[C@H](C)O)CC2)sc2c(N3CCOCC3)nc(-c3cnc(N)nc3)nc12` the V2/F was 639 L (human patients, plasma; oral).
`CCCS(=O)(=O)Nc1ccc(F)c(C(=O)c2c[nH]c3ncc(-c4ccc(Cl)cc4)cc23)c1F`: “unbound fraction in incubation” 1.38e-05 ± 4.5e-06 (rapid equilibrium dialysis; 100% human plasma; 5 µM, 4 h).
The Vd/F of `CCCC[C@H](NC(C)=O)C(=O)N[C@H]1CCC(=O)NC[C@@H](C(=O)N[C@@H](Cc2c[nH]c3ccccc23)C(N)=O)NC(=O)[C@H](CCCNC(=N)N)NC(=O)[C@@H](Cc2ccccc2)NC(=O)[C@H](Cc2c[nH]cn2)NC1=O` is reported as 9.78 L/kg (CD Sprague Dawley rat, male, plasma; subcutaneous, 5.0 mg/kg daily, day 1).
`O=C(NC[C@H]1CN(c2ccc(N3CCOCC3=O)cc2)C(=O)O1)c1ccc(Cl)s1` gave an MRT(0-t) of 5.97 ± 0.34 h (Sprague-Dawley rat, male, plasma; oral, 10 mg/kg).
Under “acetonitrile at elution”, `CCCCCCCCCCCCCNCC(=O)N(CC(=O)N(CCCCN)CC(=O)N(CCN)CC(=O)N(CC(N)=O)C(C)C)C(C)C` is recorded as 66.7% (preparative RP-HPLC C18; water to acetonitrile gradient; 0.05% TFA in eluent; higher = more hydrophobic).
`CN(C)C(=O)c1cc2cnc(Nc3ccc(N4CCNCC4)cn3)nc2n1C1CCCC1`: “amount excreted in urine” 19.3 mg (human, moderate renal impairment; oral, 400 mg, 0 to 144 h, geometric mean).
For `CCCC[C@@H]1NC(=O)[C@@H](NC(=O)[C@H](CCC(=O)O)NC(=O)CNC(=O)CN2CCN(CC(=O)O)CCN(CC(=O)O)CCN(CC(=O)O)CC2)CCCCNC(=O)C[C@@H](C(N)=O)NC(=O)[C@H](C(C)C)NC(=O)[C@@H]2CCCN2C(=O)[C@H](CCCNC(=N)N)NC(=O)CNC(=O)[C@H](Cc2c[nH]c3ccccc23)NC(=O)[C@H](CCCNC(=N)N)NC(=O)[C@@H](Cc2ccccc2)NC(=O)[C@H](Cc2c[nH]cn2)NC(=O)[C@H](CCC(=O)O)NC1=O` [indium-111 labelled], the tissue uptake was 0.05 ± 0.03 %ID/g (C57 mice, B16/F10 lung metastatic melanoma, stomach; intravenous, 0.037 MBq, 24 h).
The t1/2 of `CN1CCN(c2ccc3nc(-c4c(N)c5c(F)cccc5[nH]c4=O)[nH]c3c2)CC1` is reported as 13.2 h (patients, plasma; oral, 300 mg daily 5 days on 2 off, day 19, median, together with: gemcitabine and capecitabine).
With `Cc1c(C(=O)NN2CCCCC2)nn(-c2ccc(Cl)cc2Cl)c1-c1ccc(Cl)cc1` the plasma concentration was 355 nM (LC-MS/MS; cynomolgus monkey 2, plasma; intravenous infusion, 0.7 mg/kg, 90 min, total concentration mid-point of PET).
The oral bioavailability of `CCC[C@@]1(CCc2ccccc2)CC(O)=C([C@H](CC)c2cccc(NS(=O)(=O)c3ccc(C(F)(F)F)cn3)c2)C(=O)O1` is reported as 44 ± 4% (Sprague Dawley rat, male, plasma; oral, 5 mg/kg, long-chain triglyceride formulation).
With `Cc1ccc(NC(=O)c2ccc(CN3CCN(C)CC3)cc2)cc1Nc1nccc(-c2cncc(-c3oncc3C)c2)n1` the AUC(0-t) was 9160 ng·h/mL (older healthy human adults, plasma; oral, 12.5 mg single dose, fed, mean).
`C=CC(=C)CC[C@]1(C)[C@H](C)C[C@H](OC(=O)CCCCCCCCC)[C@@]23C(=C[C@H](OC(C)=O)C[C@@H]12)[C@@H](OC(C)=O)O[C@H]3OC(C)=O` gave a haemolysis of 50.6% (haemolysis; 500 µM).
`O=c1[nH]c(=O)c(Cc2cccc(C(F)(F)F)c2)c([C@H]2CC[C@H](c3ccccc3)CC2)[nH]1` gave an AUC(0-24) of 36500 ng·h/mL (mouse, both sexes; NOAEL, day 28, 28-day GLP toxicology study).
`[2H]C([2H])([2H])Oc1cc2c(cc1OC([2H])([2H])[2H])C1CC(=O)C(CC(C)C)CN1CC2` (stereo not drawn) gave a dose-normalized AUC(0-inf) of 17 ng·h/mL (item: deuterated α-HTBZ; healthy human volunteers, plasma; oral, 12 mg single dose, standard meal).
`CCOc1ccc(Cc2cc([C@]34OC[C@](CO)(O3)[C@@H](O)[C@H](O)[C@H]4O)ccc2Cl)cc1` — result for “dose excreted unchanged”: 0.72% (human, type 2 diabetes, mild renal impairment, urine; oral, 15 mg, 0 to 96 h).
`CN[C@H](CC(C)C)C(=O)N[C@H]1C(=O)N[C@@H](CC(N)=O)C(=O)N[C@H]2C(=O)N[C@H]3C(=O)N[C@H](C(=O)N[C@H](C(=O)O)c4cc(O)cc(O)c4-c4cc3ccc4O)[C@H](O)c3ccc(c(Cl)c3)Oc3cc2cc(c3O[C@@H]2O[C@H](CO)[C@@H](O)[C@H](O)[C@H]2O[C@H]2C[C@](C)(N)[C@H](O)[C@H](C)O2)Oc2ccc(cc2Cl)[C@H]1O`: “time above MIC” 433 min (microdialysis; pig (Danish Landrace), subcutaneous adipose tissue; iv infusion, 1000 mg over 100 min, MIC 2.0 µg/mL, together with: meropenem co-administered).
For `Cc1nc2cccc(OCC(C)(C)C(=O)NC(C)C)c2c(N)c1C(=O)O`, the Tmax was 0 h (male Sprague-Dawley rat, plasma; dietary, 60 mg/kg/day, day 7).
For `COc1cccc(N2CCN(C3=Nc4c(F)cccc4[C@H](CC(=O)O)N3c3cc(C(F)(F)F)ccc3OC)CC2)c1`, “mean residence time” read 8.36 ± 3.87 h (healthy women, plasma; intravenous, 240 mg once daily, day 14, 30-min infusion).
With `CCOc1ccc(/C=C/c2nc(=O)c3ccccc3o2)cc1` the maximum solubility was 20 µM (0.1 M sodium acetate with 0.01% Triton X-100; pH 5.5).
`O=C(/C=C/c1ccc(O)c2c1[C@H](C(=O)O)[C@@H](c1ccc(O)c(O)c1)O2)O[C@H](Cc1ccc(O)c(O)c1)C(=O)O` has an MRT(0-t) of 7.56 ± 2.84 h (UPLC-MS/MS; Wistar rat, microcirculation dysfunction model, plasma; oral, 100 mg/kg Salvia miltiorrhiza stem-leaf extract FT).
For `CCCOc1ccc([C@H]2CNC(=O)N2c2ccc3[nH]cnc3c2)cc1`, the AUC(0-t) was 8190 ng·h/mL (human, plasma; oral, 800 mg, single dose, fasted).
`CC1(C)C(/C=C/C=C/C=C/C=C2\N(CCCCS(=O)(=O)O)c3ccc4ccccc4c3C2(C)C)=[N+](CCCCS(=O)(=O)[O-])c2ccc3ccccc3c21` — result for “time to peak tumour uptake”: > 48 h (photoacoustic imaging; mouse Hep3B orthotopic xenograft; intravenous, 2.46 mg/kg).
The kinetic solubility of `O=C1Oc2ccccc2C(=O)CCc2ccccc21` is reported as > 100 µg/mL (nephelometry; aqueous buffer; 30 min, pH 6.5).
`CCn1c(=O)c2c(nc(/C=C/c3ccc(O)c(OC)c3)n2C)n(CC)c1=O`: “metabolite to parent AUCinf ratio” 0.0821 (healthy humans, plasma; oral, 40 mg, together with: rifampin 600 mg/day).
`O=C1N=C(N2CCOCC2)CN1c1ccc(Cl)cc1` gave an AUC(0-inf) of 70500 ng·h/mL (beagle dog, both sexes, plasma; oral, 30 mg/kg, tablets, fasted, day 5).
The AUC(0-24h) of `Cn1c(C(F)(F)F)cc(=O)n(-c2cc(Oc3cccnc3OCC(=O)O)c(Cl)cc2F)c1=O` is reported as 51200 ng·h/mL (beagle dog, female, plasma; oral, 300 mg/kg/day epyrifenacil, 13 weeks).
For `O=C(O)Cc1ccccc1Nc1c(Cl)cccc1Cl`, the t1/2 was 8.6 ± 3.9 h (rat, plasma; oral, 10 mg/kg, together with: sesamin 100 mg/kg).
`C[C@]12CC[C@@H]3c4ccc(O)cc4CC[C@H]3[C@@H]1C[C@@H](O)[C@@H]2O` — result for “minimum serum concentration”: 0 ng/mL (GC-MS; breast cancer women on NSAI, serum; vaginal, 0.03 mg daily, 2 h, day 28).
`CS(=O)(=O)OC[C@H](O)[C@@H](O)COS(C)(=O)=O` — result for “RBC/plasma partition coefficient”: 0.79 and 0.8 and 0.85 (Wistar rat, female, red blood cells and plasma; intraperitoneal, 500 mg/kg, 4 h).
Under “unbound plasma concentration”, `CN(C)C(=O)c1cc2cnc(Nc3ccc(N4CCNCC4)cn3)nc2n1C1CCCC1` is recorded as 370 nM (human, plasma; oral, 600 mg daily for 8 days, day of surgery).
With `CC(C)[C@H](NC(=O)[C@@H]1CCCN1C(=O)[C@H](CCCNC(=N)N)NC(=O)[C@H](CS)NC(=O)[C@H](Cc1c[nH]c2ccccc12)NC(=O)[C@H](CCCNC(=N)N)NC(=O)[C@@H](Cc1ccccc1)NC(=O)[C@H](Cc1c[nH]cn1)NC(=O)[C@H](CCC(=O)O)NC(=O)[C@H](CS)NC(=O)[C@H](CS)NC(=O)[C@H](CCCCN)NC(=O)[C@@H]1CC(=O)N[C@@H](CCCNC(=N)N)C(=O)N[C@@H](C(C)C)C(=O)N[C@@H](CC(=O)O)C(=O)N[C@H](Cc2ccc(O)cc2)C(=O)N1)C(N)=O` [technetium-99m labelled] the tissue uptake was 1.32 ± 0.14 %ID/g (C57 mouse, female, B16/F1 melanoma, liver; intravenous, 2 h, together with: NDP-MSH 10 µg co-injected).
`OC[C@H]1O[C@@H](c2ccc(F)c(Cc3cc4ccccc4s3)c2)[C@H](O)[C@@H](O)[C@@H]1O` has an AUC of 3020 ng·h/mL (male ICR mouse, plasma; oral, 3 mg/kg, 24 h).
`Cc1cc(C)c2c(c1)[C@@H](N(Cc1cc(C(F)(F)F)cc(C(F)(F)F)c1)c1nnn(C)n1)CCCN2C[C@H]1CC[C@H](C(=O)O)CC1` gave a Vss/F of 998 L (human, plasma; oral, 100 mg once daily, steady state, geometric mean).

Some of these lines once more:
`C[C@]12CC[C@@H]3c4ccc(O)cc4CC[C@H]3[C@@H]1C[C@@H](O)[C@@H]2O` — result for “minimum serum concentration”: 0 ng/mL (GC-MS; breast cancer women on NSAI, serum; vaginal, 0.03 mg daily, 2 h, day 28).
`CS(=O)(=O)OC[C@H](O)[C@@H](O)COS(C)(=O)=O` — result for “RBC/plasma partition coefficient”: 0.79 and 0.8 and 0.85 (Wistar rat, female, red blood cells and plasma; intraperitoneal, 500 mg/kg, 4 h).
Under “unbound plasma concentration”, `CN(C)C(=O)c1cc2cnc(Nc3ccc(N4CCNCC4)cn3)nc2n1C1CCCC1` is recorded as 370 nM (human, plasma; oral, 600 mg daily for 8 days, day of surgery).
With `CC(C)[C@H](NC(=O)[C@@H]1CCCN1C(=O)[C@H](CCCNC(=N)N)NC(=O)[C@H](CS)NC(=O)[C@H](Cc1c[nH]c2ccccc12)NC(=O)[C@H](CCCNC(=N)N)NC(=O)[C@@H](Cc1ccccc1)NC(=O)[C@H](Cc1c[nH]cn1)NC(=O)[C@H](CCC(=O)O)NC(=O)[C@H](CS)NC(=O)[C@H](CS)NC(=O)[C@H](CCCCN)NC(=O)[C@@H]1CC(=O)N[C@@H](CCCNC(=N)N)C(=O)N[C@@H](C(C)C)C(=O)N[C@@H](CC(=O)O)C(=O)N[C@H](Cc2ccc(O)cc2)C(=O)N1)C(N)=O` [technetium-99m labelled] the tissue uptake was 1.32 ± 0.14 %ID/g (C57 mouse, female, B16/F1 melanoma, liver; intravenous, 2 h, together with: NDP-MSH 10 µg co-injected).
`OC[C@H]1O[C@@H](c2ccc(F)c(Cc3cc4ccccc4s3)c2)[C@H](O)[C@@H](O)[C@@H]1O` has an AUC of 3020 ng·h/mL (male ICR mouse, plasma; oral, 3 mg/kg, 24 h).
